Results of several laboratories.
Each numbered part is a random draw from the data of one study; scales do not carry over between parts. Changes are numbered by the printed parent chain.
Sequence of UniProt P49137 (whole entry, looked up): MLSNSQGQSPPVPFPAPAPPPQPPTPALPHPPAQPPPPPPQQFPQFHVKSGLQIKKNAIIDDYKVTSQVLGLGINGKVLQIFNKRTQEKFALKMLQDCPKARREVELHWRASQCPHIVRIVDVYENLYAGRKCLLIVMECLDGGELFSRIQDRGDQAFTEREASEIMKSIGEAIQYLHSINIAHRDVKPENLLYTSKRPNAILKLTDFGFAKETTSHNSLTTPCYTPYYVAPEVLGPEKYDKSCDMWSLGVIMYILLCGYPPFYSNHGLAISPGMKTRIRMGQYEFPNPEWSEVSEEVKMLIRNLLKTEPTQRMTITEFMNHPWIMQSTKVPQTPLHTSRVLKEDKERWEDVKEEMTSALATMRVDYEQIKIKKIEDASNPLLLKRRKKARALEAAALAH
Sequence of UniProt Q9HAZ1 (whole entry, looked up): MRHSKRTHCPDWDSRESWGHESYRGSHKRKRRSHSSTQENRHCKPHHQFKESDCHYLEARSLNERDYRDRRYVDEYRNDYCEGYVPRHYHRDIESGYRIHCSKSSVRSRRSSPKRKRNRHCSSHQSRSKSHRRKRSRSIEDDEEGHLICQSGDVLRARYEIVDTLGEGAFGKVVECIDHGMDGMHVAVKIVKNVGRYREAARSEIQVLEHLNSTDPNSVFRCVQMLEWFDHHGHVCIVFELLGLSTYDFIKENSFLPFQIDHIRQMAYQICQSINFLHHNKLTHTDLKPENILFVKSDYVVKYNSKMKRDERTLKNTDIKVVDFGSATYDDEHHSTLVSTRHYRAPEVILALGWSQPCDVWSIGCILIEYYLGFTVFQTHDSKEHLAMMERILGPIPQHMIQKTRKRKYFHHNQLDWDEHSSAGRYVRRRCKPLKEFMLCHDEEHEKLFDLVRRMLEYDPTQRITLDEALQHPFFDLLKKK
Sequence of UniProt P42684 (whole entry, looked up): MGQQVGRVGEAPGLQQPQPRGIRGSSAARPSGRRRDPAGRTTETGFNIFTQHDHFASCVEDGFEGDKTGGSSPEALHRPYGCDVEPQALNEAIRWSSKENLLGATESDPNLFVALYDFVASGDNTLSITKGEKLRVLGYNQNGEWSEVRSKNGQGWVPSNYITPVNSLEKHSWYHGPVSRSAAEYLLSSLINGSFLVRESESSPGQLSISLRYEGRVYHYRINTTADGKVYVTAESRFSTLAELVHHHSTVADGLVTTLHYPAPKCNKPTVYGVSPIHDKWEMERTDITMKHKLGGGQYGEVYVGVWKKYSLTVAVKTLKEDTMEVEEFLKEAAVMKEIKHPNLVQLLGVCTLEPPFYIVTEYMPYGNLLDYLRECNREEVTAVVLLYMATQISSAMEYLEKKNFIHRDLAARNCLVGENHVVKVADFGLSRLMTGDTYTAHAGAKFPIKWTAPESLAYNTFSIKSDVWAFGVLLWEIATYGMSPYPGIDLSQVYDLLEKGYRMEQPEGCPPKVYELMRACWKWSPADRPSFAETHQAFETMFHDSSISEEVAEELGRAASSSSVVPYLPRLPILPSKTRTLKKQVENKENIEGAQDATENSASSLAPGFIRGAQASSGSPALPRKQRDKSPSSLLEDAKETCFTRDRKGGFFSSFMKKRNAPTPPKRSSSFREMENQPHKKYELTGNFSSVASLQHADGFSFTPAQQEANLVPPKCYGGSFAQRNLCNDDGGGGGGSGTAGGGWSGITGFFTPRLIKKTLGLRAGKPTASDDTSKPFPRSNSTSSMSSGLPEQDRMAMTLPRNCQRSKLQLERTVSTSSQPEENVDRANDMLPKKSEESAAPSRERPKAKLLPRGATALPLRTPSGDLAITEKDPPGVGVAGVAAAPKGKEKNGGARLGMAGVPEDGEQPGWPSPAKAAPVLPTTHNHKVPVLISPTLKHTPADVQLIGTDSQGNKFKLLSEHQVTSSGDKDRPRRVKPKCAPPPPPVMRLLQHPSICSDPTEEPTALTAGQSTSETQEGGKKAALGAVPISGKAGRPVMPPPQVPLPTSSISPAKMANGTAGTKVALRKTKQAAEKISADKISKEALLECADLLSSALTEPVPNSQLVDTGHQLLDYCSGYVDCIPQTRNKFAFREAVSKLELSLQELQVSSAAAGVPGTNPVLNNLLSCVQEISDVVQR
Sequence of UniProt P52333 (whole entry, looked up): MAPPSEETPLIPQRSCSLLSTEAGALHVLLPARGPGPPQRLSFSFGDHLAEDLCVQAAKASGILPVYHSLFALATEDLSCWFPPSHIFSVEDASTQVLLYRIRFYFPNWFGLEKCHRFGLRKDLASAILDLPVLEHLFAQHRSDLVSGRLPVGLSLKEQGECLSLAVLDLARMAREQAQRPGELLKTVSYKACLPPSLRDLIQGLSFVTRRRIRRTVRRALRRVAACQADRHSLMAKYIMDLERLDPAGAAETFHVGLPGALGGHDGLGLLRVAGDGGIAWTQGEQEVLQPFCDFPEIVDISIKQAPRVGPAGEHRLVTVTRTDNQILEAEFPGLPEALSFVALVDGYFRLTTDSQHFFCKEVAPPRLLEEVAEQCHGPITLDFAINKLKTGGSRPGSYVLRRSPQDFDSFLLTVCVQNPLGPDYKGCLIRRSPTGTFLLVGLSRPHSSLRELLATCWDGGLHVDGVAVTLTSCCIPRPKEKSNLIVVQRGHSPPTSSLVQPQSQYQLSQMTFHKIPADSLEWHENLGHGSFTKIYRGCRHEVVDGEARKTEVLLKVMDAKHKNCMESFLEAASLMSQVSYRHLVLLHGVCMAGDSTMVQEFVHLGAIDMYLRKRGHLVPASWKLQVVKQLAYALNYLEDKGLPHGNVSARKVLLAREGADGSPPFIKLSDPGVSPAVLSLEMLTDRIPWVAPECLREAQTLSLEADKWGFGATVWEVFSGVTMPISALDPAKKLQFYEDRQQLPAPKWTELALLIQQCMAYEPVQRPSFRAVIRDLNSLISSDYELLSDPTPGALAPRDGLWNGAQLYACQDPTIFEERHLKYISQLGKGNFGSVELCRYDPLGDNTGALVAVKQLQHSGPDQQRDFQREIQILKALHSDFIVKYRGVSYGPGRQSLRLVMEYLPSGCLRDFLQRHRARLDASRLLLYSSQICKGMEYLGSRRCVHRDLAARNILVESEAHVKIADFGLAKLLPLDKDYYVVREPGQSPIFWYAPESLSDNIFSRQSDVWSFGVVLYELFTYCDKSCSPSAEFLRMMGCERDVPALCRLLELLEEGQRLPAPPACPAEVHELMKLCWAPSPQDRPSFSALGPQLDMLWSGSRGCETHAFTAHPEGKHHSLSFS
Sequence of UniProt Q15349 (whole entry, looked up): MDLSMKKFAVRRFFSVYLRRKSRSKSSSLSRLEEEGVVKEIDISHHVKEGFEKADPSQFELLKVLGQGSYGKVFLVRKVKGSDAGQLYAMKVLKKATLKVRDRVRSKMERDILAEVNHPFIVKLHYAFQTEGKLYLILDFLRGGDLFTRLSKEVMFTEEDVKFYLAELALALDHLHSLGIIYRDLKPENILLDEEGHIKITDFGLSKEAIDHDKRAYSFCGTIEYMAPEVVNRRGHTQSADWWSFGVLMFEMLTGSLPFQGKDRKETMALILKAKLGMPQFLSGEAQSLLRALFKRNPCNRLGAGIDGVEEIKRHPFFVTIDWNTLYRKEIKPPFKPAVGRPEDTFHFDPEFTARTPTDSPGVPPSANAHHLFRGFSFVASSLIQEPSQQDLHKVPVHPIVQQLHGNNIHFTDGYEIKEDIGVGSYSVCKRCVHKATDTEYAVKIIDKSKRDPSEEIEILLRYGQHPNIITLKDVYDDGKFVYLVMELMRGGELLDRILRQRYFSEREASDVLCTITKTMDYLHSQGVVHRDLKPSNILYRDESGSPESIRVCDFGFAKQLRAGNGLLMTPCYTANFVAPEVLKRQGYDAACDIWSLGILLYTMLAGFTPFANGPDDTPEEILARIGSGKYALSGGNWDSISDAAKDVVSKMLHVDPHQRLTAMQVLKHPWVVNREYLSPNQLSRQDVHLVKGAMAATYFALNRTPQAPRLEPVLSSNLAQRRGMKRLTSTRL
Sequence of UniProt P42685 (whole entry, looked up): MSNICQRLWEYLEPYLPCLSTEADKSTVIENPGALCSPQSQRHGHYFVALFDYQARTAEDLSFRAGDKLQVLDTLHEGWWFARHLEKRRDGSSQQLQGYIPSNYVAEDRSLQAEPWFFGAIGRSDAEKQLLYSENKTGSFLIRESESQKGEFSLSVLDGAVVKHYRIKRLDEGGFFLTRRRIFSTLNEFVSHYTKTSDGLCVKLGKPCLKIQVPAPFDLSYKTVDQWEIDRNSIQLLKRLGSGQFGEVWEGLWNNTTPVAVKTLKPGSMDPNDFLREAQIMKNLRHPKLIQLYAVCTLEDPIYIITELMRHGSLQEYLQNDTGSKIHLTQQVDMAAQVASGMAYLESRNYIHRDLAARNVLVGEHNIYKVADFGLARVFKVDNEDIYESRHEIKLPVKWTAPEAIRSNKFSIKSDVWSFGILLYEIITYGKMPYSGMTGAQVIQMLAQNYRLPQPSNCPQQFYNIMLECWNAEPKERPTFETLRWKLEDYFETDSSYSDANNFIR
Sequence of UniProt P10398 (whole entry, looked up): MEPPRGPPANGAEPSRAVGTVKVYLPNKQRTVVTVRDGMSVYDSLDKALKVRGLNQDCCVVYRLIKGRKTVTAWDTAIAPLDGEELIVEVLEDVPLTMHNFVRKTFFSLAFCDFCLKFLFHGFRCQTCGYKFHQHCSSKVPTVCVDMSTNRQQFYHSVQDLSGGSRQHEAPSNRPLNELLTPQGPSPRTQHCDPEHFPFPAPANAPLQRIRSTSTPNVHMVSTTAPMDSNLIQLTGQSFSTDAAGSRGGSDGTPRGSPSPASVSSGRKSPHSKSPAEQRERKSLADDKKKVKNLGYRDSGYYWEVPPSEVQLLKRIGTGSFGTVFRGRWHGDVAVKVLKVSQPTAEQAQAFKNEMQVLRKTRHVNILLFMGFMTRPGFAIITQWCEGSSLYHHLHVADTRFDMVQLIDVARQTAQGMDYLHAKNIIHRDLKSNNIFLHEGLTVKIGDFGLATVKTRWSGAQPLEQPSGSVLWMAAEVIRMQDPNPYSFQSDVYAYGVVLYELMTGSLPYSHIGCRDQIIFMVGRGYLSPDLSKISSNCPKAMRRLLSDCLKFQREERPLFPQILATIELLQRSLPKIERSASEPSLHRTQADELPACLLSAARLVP

Block 1
SMILES: O=C1NC(=O)c2c1c1c3ccccc3[nH]c1n1cncc21
Observed: enzyme activity
Mode: inhibitor
Concentration: 0.5 µM
Relative to: control
Endpoint: remaining activity
RPS6KA2 (Homo sapiens, UniProt Q15349): 32.7%
MERTK (Homo sapiens, UniProt Q12866): 53.9%
TAOK2 (Homo sapiens, UniProt Q9UL54): 89.4%
ULK2 (Homo sapiens, UniProt Q8IYT8): 95.5%
MST1R (Homo sapiens, UniProt Q04912): 102%
NEK6 (Homo sapiens, UniProt Q9HC98): 88.7%
ARAF (Homo sapiens, UniProt P10398): 93.8%
ABL2 (Homo sapiens, UniProt P42684): 79.9%
WEE1 (Homo sapiens, UniProt P30291): 94.7%
JAK3 (Homo sapiens, UniProt P52333): 140%
EPHA3 (Homo sapiens, UniProt P29320): 105%
FGFR1 (Homo sapiens, UniProt P11362): 55.2%
FRK (Homo sapiens, UniProt P42685): 96.8%
MAPKAPK2 (Homo sapiens, UniProt P49137): 98.9%

Block 2
Target: NFE2L2, bZIP domain (human)
Method: DHFR protein complementation
Medium: yeast
Setting: single substitutions, most at no-binding floor
Relative to: wild-type JUN-FOS pair
Direction: higher = stronger binding
Endpoint: binding fitness
Parent: JUN, bZIP domain (human); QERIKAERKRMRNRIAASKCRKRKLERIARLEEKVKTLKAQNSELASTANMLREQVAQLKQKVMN; partner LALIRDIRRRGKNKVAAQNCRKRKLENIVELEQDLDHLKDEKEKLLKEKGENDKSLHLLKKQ
I28N: -1.47 natural log
K34L: -1.32 natural log
E44W: -1.34 natural log
I28W: -1.56 natural log
T48N: -1.42 natural log
L52M: -1.5 natural log
V35S: -1.5 natural log
T37E: -1.35 natural log

Block 3
SMILES: C[C@H](c1ccc(F)cc1)N(Cc1cccc(C(=O)O)c1)C(=O)c1cnc2ccccc2c1
Observed: cell-free assay
Method: competition with immobilised ligand
Concentration: 1 µM
Endpoint: remaining binding
PRKCD (Homo sapiens, UniProt Q05655): 100%
CLK4 (Homo sapiens, UniProt Q9HAZ1): 66%
NLK (Homo sapiens, UniProt Q9UBE8): 86%
KIT (Homo sapiens, UniProt P10721, L576P): 94%

Block 4
Species: human
Medium: microsomes or S9
Concentration: 2 µM
Time: 0.5 h
Endpoint: remaining compound
CC1(C)C=C(N(Cc2ncc[nH]2)c2ccc(Cl)cc2Cl)c2ncccc2O1: 0.0985%
CSc1nnc(N2C(N)=C(C#N)C3(C(=O)Nc4ccc(F)cc43)C3=C2CC(C)(C)CC3=O)s1 (stereo not drawn): 75.1%
CN(C)c1nc2n(c(=O)n1)CCN2C(=O)Nc1ccccc1: 23.6%
Cc1cc(N2CCC(C(=O)NC(C)(C)C)CC2)nc(Nc2ccc(C#N)c(C(F)(F)F)c2)n1: 83.8%
Cc1cc(-c2ccccc2)nc2c(Br)c(=O)[nH]n12: 37.3%
CS(=O)(=O)c1cccc(Br)c1N1CCCC2(CNC(=O)O2)C1 (stereo not drawn): 85.3%
OC1(CN2CCC(c3nnc4ccccn34)CC2)CCNC1 (stereo not drawn): 65.1%

Some of these lines once more (block 3):
NLK (Homo sapiens, UniProt Q9UBE8): 86%
PRKCD (Homo sapiens, UniProt Q05655): 100%
KIT (Homo sapiens, UniProt P10721, L576P): 94%
CLK4 (Homo sapiens, UniProt Q9HAZ1): 66%
